Results from different studies.
Compare with care: the assays were run in different laboratories. Values joined by “and” are separate records of one study, mostly repeats; a detail may differ.

insulin human — fold change (item: GOT2 mRNA; uninfected mouse, brain; i.p., dose not given; reference: PBS): 1.07
KLPQLCTEL — specific lysis (Ca-Ski (HLA-A2+ HPV+); 111In release; peptide; concentration not given, 16 h, E:T 25:1 IVS 5, together with: peptide-generated T-cell line): 34.1%
lead — viability (glioblastoma; CCK-8; 10 µM, 24 h, unit not given; reference: untreated control): 0.57
abamectin — regulated quantifiable genes (HepG2; RNA-seq; 10 µM, 24 h): 5.6%
SFLLRNPNDKYEPF — sustained cytosolic Ca2+ increase (BPAEC; fura-2; peptide; 100 µM, together with: EGTA 5 mM): inhibited
KISEYRHYV — specific lysis (HN-30 (HLA-A2− HPV+); 111In release; peptide; concentration not given, 16 h, E:T 25:1 IVS 5, together with: peptide-generated T-cell line): 5.5%
Tunicamycin — protein level (HEK293; western blot, item: phospho-eIF2α over total eIF2α; 10 µg/mL, 6 h, unit not given; reference: mock): 1.68 and 1.6 and 1.87
cucurbitacin B — IC50 (MP38 (BAP1-mutant uveal melanoma); cell viability, CellTiter-Glo; 72 h): 14.1 nM
DFIPPYVDFPPRLPIFR — degradation (DLD-1; immunoblot, item: beta-catenin; peptide, cytosolic fraction; reference: non-transfected cells): > 50%
KLPQLCTEV — specific lysis (Ca-Ski (HLA-A2+ HPV+); 111In release; peptide; concentration not given, 16 h, E:T 25:1 IVS 5, together with: peptide-generated T-cell line): 70.8%
LPLKMLNIPSINVH — antigen-specific CD4 T cells (stimulated healthy donor PBMCs; combinatorial multi-epitope tetramer staining, item: DRB1*01:01 tetramer; peptide; concentration not given; reference: CD4 T cells): 0.52%

Repeated from above:
DFIPPYVDFPPRLPIFR — degradation (DLD-1; immunoblot, item: beta-catenin; peptide, cytosolic fraction; reference: non-transfected cells): > 50%
